Experimental data of several laboratories.
Protocols differ between the studies behind these lines. Numbers after ± are the reported error.

`CC[C@H](C)C(=O)N1CCC(NC(=O)Nc2ccc(OC(F)(F)F)c(F)c2)CC1` has a Vd/F of 244 L (human, plasma; oral, 8 mg, single dose, fasted, healthy volunteers).
`COc1cc(C(=O)NCCOCCOCCOCCNC(=O)c2ccc([18F])nc2)ccc1NC(=O)C1NC(CC(C)(C)C)C(C#N)(c2ccc(Cl)cc2F)C1c1cccc(Cl)c1F` (centres unmarked) gave a tracer uptake of 0.84 %ID/g (HepG2 tumour model; host not given, brain; 30 min, tumour-bearing).
`CN(C)CC1CCCCC1(O)c1cccc(O)c1` (centres unmarked) gave a Papp A→B of 12.2 ×10⁻⁶ cm/s (Caco-2; 100 µM, 3 h, pH 7.4).
`COc1ccc(CNc2nc(N3CCC[C@H]3CO)ncc2C(=O)NNC(=O)c2cnc(N3CCC[C@H]3CO)nc2NCc2ccc(OC)c(Cl)c2)cc1Cl` gave a revertant count of 35 ± 5 (Salmonella typhimurium; TA1535; 125 µg/plate, 48 h, together with: rat liver S9).
With `CCC(=O)N(C)c1ccc(Cl)c(Cl)c1` the revertants was 86 ± 11.9 revertants/plate (Salmonella typhimurium; Ames test; TA100; 0.05 mg/plate, without S9).
`O=C(O)CCC(NP(=O)(O)OCCC[C@@H](NC(=O)CCC(NC(=O)CCCCCNC(=O)c1ccc([18F])cc1)C(=O)O)C(=O)O)C(=O)O` (some centres unmarked) gave a tracer uptake of 0.27 %ID/g (PC-3 tumour model; host not given, lung; intravenous, 2 h, tumour-bearing).
The clearance of `C[C@@](O)(C(F)F)[C@H](NC(=O)c1ccc(C#CC#CC2CC2)cc1)C(=O)NO` is reported as 32 mL/min/kg (dog, plasma; intravenous, 10 mg/kg).
The tracer uptake of `O=C(O)CCC(NP(=O)(O)OCCC[C@@H](NC(=O)CCC(NC(=O)CCCCCNC(=O)CCCCCNC(=O)c1ccc([18F])cc1)C(=O)O)C(=O)O)C(=O)O` (some centres unmarked) is reported as 0.07 %ID/g (PC-3 tumour model; host not given, heart; intravenous, 2 h, tumour-bearing).
`COc1ccc(CNc2nc(N3CCC[C@H]3CO)ncc2C(=O)NN)cc1Cl` gave a revertant count of 61 ± 3 (Salmonella typhimurium; TA1535; 125 µg/plate, 48 h, together with: rat liver S9).
`CN[C@](C)(C[18F])C(=O)O` gave a tracer uptake of 0.8 %ID/g (SK-OV-3 tumour model; host not given, blood; 2 h, tumour-bearing).
`O=C(O)CCC(NP(=O)(O)OCCC[C@@H](NC(=O)CCC(NC(=O)c1ccc([18F])cc1)C(=O)O)C(=O)O)C(=O)O` (some centres unmarked) gave a tracer uptake of 0.24 %ID/g (PC-3 tumour model; host not given, bone; intravenous, 2 h, tumour-bearing).

Some of these lines once more:
`CN(C)CC1CCCCC1(O)c1cccc(O)c1` (centres unmarked) gave a Papp A→B of 12.2 ×10⁻⁶ cm/s (Caco-2; 100 µM, 3 h, pH 7.4).
